Results from different studies.
Each numbered part is a random draw from the data of one study; scales do not carry over between parts. Substitutions count along the parent as printed.

Block 1 — method: protein-binding microarray; molecule type: double-stranded DNA, one strand shown; sample: in vitro; concentration: 0.8 µM; notes: whole 60-bp probe, no competitor; direction: higher = stronger binding; shared flanks, not repeated: … GTCTTGATTCGCTTGACGCTGCTG
Target: Centromere-binding protein 1, full length, N-terminal tag (CBF1, Saccharomyces cerevisiae, UniProt P17106, residues 1-351)
Chain of UniProt P17106 (whole entry, looked up): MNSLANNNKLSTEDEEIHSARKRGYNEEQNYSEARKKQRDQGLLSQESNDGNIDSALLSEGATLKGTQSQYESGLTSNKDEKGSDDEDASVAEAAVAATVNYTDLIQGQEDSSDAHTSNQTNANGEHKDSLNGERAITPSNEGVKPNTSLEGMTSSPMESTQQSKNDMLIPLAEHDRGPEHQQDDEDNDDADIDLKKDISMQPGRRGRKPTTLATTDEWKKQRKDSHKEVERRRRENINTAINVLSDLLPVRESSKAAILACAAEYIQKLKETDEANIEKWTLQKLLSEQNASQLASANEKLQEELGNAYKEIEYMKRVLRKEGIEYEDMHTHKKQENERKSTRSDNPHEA
Strand | fluorescence intensity
CTAGTTAATCGCCTACATGTGAGGTTTTTTTAATTC | 726 a.u.
CTACATTCAGTGCGTCACGACGCGAATAGGGCTTTC | 621 a.u.
CTAAGCTTATAGAAGCACGTGACCACAATTCACTTC | 30200 a.u.
CCTAACTACTATAAGTTAGTCACATAGCTTCGTACA | 543 a.u.
CTAAGGCAGCCAAAGAGGGTCACCTATGCAGGTTTC | 475 a.u.
GAACTTTCTTAGCCTCATGACTTATCTGCTCTTTAG | 668 a.u.
GAATCTTCTGTTGGTGACGAAATCTCTGCTGTATAG | 580 a.u.
CTATGGAGTCTTCACCATCAGCATCGTCCTCATTTC | 498 a.u.

Block 2 — method: RNAcompete; molecule type: RNA; sample: in vitro; concentration: 20 nM; notes: 7-mer, probes averaged, single round; baseline: mean of 7-mers; direction: higher = stronger binding
Target: PABPC1L2, full length, GST fusion (mouse, UniProt A0ABA7IW68)
Construct (chain): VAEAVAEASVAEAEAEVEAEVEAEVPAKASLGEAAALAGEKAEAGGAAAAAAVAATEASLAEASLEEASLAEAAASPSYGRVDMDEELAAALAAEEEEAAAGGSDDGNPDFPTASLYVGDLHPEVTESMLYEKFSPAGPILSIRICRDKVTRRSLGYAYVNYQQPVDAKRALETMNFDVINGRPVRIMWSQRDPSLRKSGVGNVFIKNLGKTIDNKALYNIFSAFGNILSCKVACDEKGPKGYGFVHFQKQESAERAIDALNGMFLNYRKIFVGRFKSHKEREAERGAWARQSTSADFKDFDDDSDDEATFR
Strand | 7-mer Z-score
AGAAGGA | 0.108
UAUCAAG | -0.0554
CGCCUUG | -0.382
UGGCAGA | 0.253
CAUGACG | -0.211
UUUGCGA | -0.298
GGAAUGC | 0.0442
CGCUCCC | -0.347

Block 3 — method: protein-binding microarray; molecule type: double-stranded DNA, one strand shown; sample: in vitro; concentration: 940 nM top; notes: 60-bp whole probe; with: salmon DNA 0.4 mg/ml; baseline: random background probes; direction: higher = stronger binding; shared flanks, not repeated: GCCTAGCAC … GTCTTGATTCGCTTGACGCTGCTG
Target: Interferon regulatory factor 5, full length, phosphomimetic (IRF5, Homo sapiens, UniProt Q13568-2, residues 1-514, S451D/S453D/S456D/S462D)
Strand | fitted relative affinity [z-score]
ATAGGTATCGGTTTCGGTTAGTGCTAG | 11.8
TTCGATTTCAGTTTCGATTAGTGCTAG | 9.4
GACGTTATCGGGACTGGGGACGTGCTA | 0.0375
GACGGTTTCGGCTTCGGGACGTGCTAG | 9.08
TCAATTCTCGGGACTCACACTGTGCTA | 1.98
CAGAGCCTCAGTCCTCACACAGTGCTA | -0.486
GACGGTTTCGGTCTCGGTACGTGCTAG | 13.6
TCATATTTTTTTGTAATACTGTGCTAG | 1.02

Other studies, line by line
Starting sequence: viral docking peptide; KKVKRRLFETREL; partner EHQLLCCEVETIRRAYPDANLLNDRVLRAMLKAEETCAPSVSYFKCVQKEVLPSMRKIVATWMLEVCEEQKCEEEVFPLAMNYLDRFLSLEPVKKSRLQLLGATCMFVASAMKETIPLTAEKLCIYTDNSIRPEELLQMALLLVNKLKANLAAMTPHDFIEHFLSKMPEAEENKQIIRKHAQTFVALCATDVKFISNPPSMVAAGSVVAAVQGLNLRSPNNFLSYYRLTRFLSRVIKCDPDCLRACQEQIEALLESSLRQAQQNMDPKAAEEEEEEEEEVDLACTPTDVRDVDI
Substitution | target | assay | system | conditions | how to read | measurement | value
K1A | CCND1, cyclin fold, Cln2 fusion (human) | yeast growth competition, sequencing | yeast | weak parent motif | baseline: not given, higher = stronger binding | normalised enrichment score | 0.296

Excerpt of the above (block 1):
Strand | fluorescence intensity
CTAAGGCAGCCAAAGAGGGTCACCTATGCAGGTTTC | 475 a.u.
GAACTTTCTTAGCCTCATGACTTATCTGCTCTTTAG | 668 a.u.
